Experimental data pooled from the literature.
± gives the spread as reported.

For COc1cc2c(c(O)c1OC)C(=O)c1c(cc(C)c(O)c1OC)C2=O, the cell viability was 88.8 ± 10.6% (HepaRG co-cultured with HK-2; MTT; 16.67 µM, 24 h; baseline: untreated control).
The AUC(0-all) of CNC(=O)c1cccc(-c2ccc([C@@H](O)[C@H]3O[C@H](CO)[C@@H](O)[C@H](O)[C@@H]3O)c(C)c2)c1 is reported as 1440 ng·h/mL (male Sprague-Dawley rat, plasma; intravenous, 3 mg/kg, group mean).
With C[C@@H](O)[C@H]1C(=O)N2C(C(=O)O)=C(SCCN=CN)C[C@H]12 the amount permeated was 1.64 nmol (starch gel membrane permeability; Gram-negative envelope surrogate; 200 µM, 20 min, pH 7.4).
COc1ccc2[nH]c([S+]([O-])Cc3ncc(C)c(OC)c3C)nc2c1 (stereo not drawn) gave a Cmax of 268 ± 198 ng/mL (healthy Chinese volunteers, plasma; oral, 20 mg, fed, CYP2C19 rapid metabolizers).
With COC(=O)c1cn(C)c2ccc(-c3cccnc3)cc12 the apoptotic cells was 0.64 ± 0.17 (COS-7; 10 µM, 24 h, 0.1% DMSO, unit not given; baseline: vehicle control).
OCCOCc1ccc(-c2noc(-c3ccc(OCC[18F])c(C(F)(F)F)c3)n2)cc1: “absorbed radiation dose” 0.12 mSv/MBq (Macaca mulatta, liver; male phantom OLINDA/EXM).
For O=C(O)CCC(=O)O.[2H]C([2H])([2H])Oc1cc(C)c2[nH]ccc2c1CN1CC[C@@H](C2CC2)C[C@H]1c1ccc(C(=O)O)cc1, “subjects with TEAE Diarrhea” read 0% (multiple ascending dose; healthy Chinese subjects; 125 mg twice daily).
COc1cc2c(cc1OC)C(=O)C(CC1CCN(Cc3ccccc3)CC1)C2 (stereo not drawn): “VAS score change” 0.59 mm (Bond-Lader VAS, item: Calmness; human; dose not given; baseline: placebo, direction not given).
For O=C(Nc1nc2cccc(-c3ccc(CN4CCS(=O)(=O)CC4)cc3)n2n1)C1CC1, “treatment-emergent adverse events” read 0% (item: paraesthesia; human rheumatoid arthritis patients; oral, 75 mg once daily, 4 weeks, regardless of relatedness).
For CC(=O)NCc1cc2c(cc1F)C(=O)N(C1CCC(=O)NC1=O)C2 (stereo not drawn), the plasma concentration was 0.15 ng/mL (cynomolgus monkey, male; oral, 0.3 mg/kg parent drug, 6 h).
With CCN(CC)Cc1cc(Nc2ccnc3cc(Cl)ccc23)ccc1O the confluence was 0.88 ± 0.08 (COS-7; 100 µM, 24 h, 0.1% DMSO, unit not given; baseline: control).
For CCCCOC(=O)N1CCN(C(=O)[C@H](CP(=O)(O)O)NC(=O)c2cc(N3CC[C@H](OC)C3)nc(-c3ccccc3)n2)CC1, “change from baseline” read 0.01 ± 0.06 INR (item: prothrombin time; human, plasma; 8 mg, 24 h post-dose).
Under “patients with adverse event”, CNC(=O)c1ccc(-c2cnc3ncc(Cc4ccc5ncccc5c4)n3n2)cc1F is recorded as 0% (item: Dizziness; cancer patients; oral, dose not given, dose escalation, grade 3-4).
CCCCOc1nc(N)c2c(n1)N(Cc1cccc(CN3CCCC3)c1)CC(=O)N2: “drug-related TEAE incidence” 0% (item: Photopsia; human; oral, 2 mg).
For Cc1c2oc3c(C)ccc(C(=O)N[C@@H]4C(=O)N[C@H](C(C)C)C(=O)N5CCC[C@H]5C(=O)N(C)CC(=O)N(C)[C@@H](C(C)C)C(=O)O[C@@H]4C)c3nc-2c(C(=O)N[C@@H]2C(=O)N[C@H](C(C)C)C(=O)N3CCC[C@H]3C(=O)N(C)CC(=O)N(C)[C@@H](C(C)C)C(=O)O[C@@H]2C)c(N)c1=O, “minimum plasma concentration” read 1.3 µg/L (LC-MS; children with cancer, plasma; dose not given, 4 h).
For CCOc1c([C@H](C)n2nc(C)c3c(N)ncnc32)cc(Cl)c(F)c1[C@@H]1CNC(=O)C1, the ECG observations was 3.2% (item: QRS >100 to ≤110 ms; previously treated B-cell malignancy; oral, 30 mg once daily, baseline below thresholds).
COc1cc(/C=C/C(=O)O)ccc1O gave a plasma concentration of 715 nM (human plasma; median).
COc1c(O[C@@H]2O[C@H](CO)[C@@H](O)[C@H](O)[C@H]2O)cc2c(c1O)C(=O)c1c(cc(C)c(O)c1OC)C2=O has a cell viability of 101 ± 9.23% (HepaRG co-cultured with HK-2; MTT; 16.67 µM, 24 h; baseline: untreated control).
Under “change in clinical chemistry or haematology parameter”, CCc1cc(C(=O)NC)c2nccc(N3CCc4c(cc(Cn5ccnc5)cc4-c4cn(C)nc4C(F)(F)F)C3=O)c2c1 is recorded as 0.93% (item: MPV; Sprague Dawley rat; oral, 50 mg/kg once daily, 7 days; baseline: vehicle).
O=C(OC(C(F)(F)F)C(F)(F)F)N1CCN(Cc2cccc(Oc3ccccc3)c2)CC1 has a k2 of 0.04 min⁻¹ (PET blocking study; rhesus monkey, brain THA; 0.01 mg/kg, compound pretreatment, together with: [18F]T-401 tracer).
O=C(O)[C@H]1O[C@@H](Oc2ccc3c(c2)OC[C@H](c2ccc(O)cc2)C3)[C@H](O)[C@@H](O)[C@@H]1O gave a plasma concentration of 794 nM (human plasma; mean).
Under “participants with TEAE”, Cc1ccc(Sc2ccccc2N2CCNCC2)c(C)c1 is recorded as 0% (item: abdominal pain; healthy adult women; oral, 10 mg daily, 12 days).
With Cc1nc2ccc(OCc3ccc(C(F)(F)F)cc3)cc2[nH]1 the tissue/plasma ratio was 6.6 ± 2.9 (male Balb/c mice, lungs; oral, 10 mg/kg, 72 h; baseline: tissue over plasma).
Cc1nc(-c2cnc(NC(C)C)n(C)c2=O)ccc1Oc1ccnc(-c2cnn(C)c2)c1 — result for “apparent volume of distribution”: 13.3 L/kg (Beagle dog, male, plasma; oral, 30 mg/kg, crossover study, mean).
